# Assay results gathered from unrelated publications.
Structure (SMILES),tested on,test,test system,conditions,measurement,value
COC(=O)c1ccc(O)cc1,Helicobacter pylori,"microbial growth, broth dilution",,0.98 µg/mL,inhibition,69.8%
Cn1nnc(-c2cccnc2SCC(=O)c2ccc(F)cc2)n1,Trypanosoma brucei,"parasite growth, resazurin",,,EC50,> 64 µM
COc1cc(-c2nc3ccccc3c(=O)n2Nc2ccc([N+](=O)[O-])cc2[N+](=O)[O-])ccc1OCc1cn(CC(=O)NCc2ccccc2)nn1,,"DPPH scavenging, absorbance",,100 µM,inhibition,16.2%
COc1cc([C@H]2OC[C@H]3[C@@H]2CO[C@@H]3c2cc(OC)c(O)c(OC)c2)cc(OC)c1O,Helicobacter pylori,"microbial growth, broth dilution",,125 µg/mL,inhibition,100%
CC(C)(C)Nc1ccnc(Nc2cccc(-c3cccnc3)c2)n1,BJ,"cell growth or viability, ATP luminescence",,72 h,EC50,> 20 µM
S=C(Nc1ccccc1)Nc1ccc(Oc2nnc(-c3ccc(Cl)cc3)c3ccccc23)cc1,HepG2,"cell growth or viability, MTT",,2.5 µM,cell death,82%
COc1cccc(-c2cccc(Nc3nccc(NC4CCCCC4)n3)c2)c1,BJ,"cell growth or viability, ATP luminescence",,72 h,EC50,12.5 µM
Cc1cc(C)c(C#N)c(SCC(=O)N2CCN(C)CC2)n1,Leishmania infantum,parasite growth,mouse Macrophage,"intracellular, amastigote",EC50,> 64 µM
CCCN(O)N=Nc1ccc(S(=O)(=O)Nc2onc(C)c2C)cc1,,"DPPH scavenging, absorbance",,180 µg/mL,inhibition,13.3%
O=C(Nc1ccc(-c2ccc3ncn(Cc4ccccc4)c(=O)c3c2)cn1)c1ccco1,HCC827,"cell growth or viability, CCK-8",,72 h,IC50,5.89 µM
CC(=NNC(=O)c1ccncc1)c1ccc(Nc2nnc(-c3ccc(Cl)cc3)c3ccccc23)cc1,HepG2,"cell growth or viability, MTT",,2.5 µM,cell death,96.1%
COc1cccc(C(=O)C[S+]([O-])c2nc(C)cc(C)c2C#N)c1 (stereo not drawn),Trypanosoma brucei,"parasite growth, resazurin",RHODESIENSE,,EC50,31 µM
CC(=O)Nc1ccc(Oc2nnc(-c3ccc(Cl)cc3)c3ccccc23)cc1,HepG2,"cell growth or viability, MTT",,"10 µM, 24 h",viability,6.84%
COc1cc(-c2nc3ccccc3c(=O)n2Nc2ccc([N+](=O)[O-])cc2[N+](=O)[O-])ccc1OCc1cn(CC(=O)Nc2ccccc2[N+](=O)[O-])nn1,,"DPPH scavenging, absorbance",,100 µM,inhibition,22.1%
Cc1noc(NS(=O)(=O)c2ccc(N=NN(O)c3ccccc3)cc2)c1C,,"DPPH scavenging, absorbance",,180 µg/mL,inhibition,13%
CC(=NNC(=O)c1ccccc1Cl)c1ccc(Nc2nnc(-c3ccc(Cl)cc3)c3ccccc23)cc1,HepG2,"cell growth or viability, MTT",,"1.25 µM, 24 h",viability,5.45%
CCN(O)N=Nc1ccc(S(=O)(=O)Nc2nccs2)cc1,,"DPPH scavenging, absorbance",,300 µg/mL,inhibition,30.8%
C=C[C@@]1(C)C=C2CC[C@@H]3[C@](C)(CCC[C@@]3(C)C(=O)O)[C@H]2CC1,Helicobacter pylori,"microbial growth, broth dilution",,62.5 µg/mL,inhibition,100%
CCCC(=O)Nc1ccc(-c2ccc3ncn(Cc4ccc(C)cc4)c(=O)c3c2)cn1,HCC827,"cell growth or viability, CCK-8",,72 h,IC50,> 10 µM
CN(O)N=Nc1ccc(S(=O)(=O)Nc2nccs2)cc1,,"DPPH scavenging, absorbance",,240 µg/mL,inhibition,28.4%
Cc1cc(C)c(C#N)c(SCC(=O)c2ccccc2C)n1,Trypanosoma brucei,"parasite growth, resazurin",RHODESIENSE,,EC50,33.5 µM
CC(=NNC(=O)c1ccccc1Br)c1ccc(Nc2nnc(-c3ccc(Cl)cc3)c3ccccc23)cc1,HepG2,"cell growth or viability, MTT",,"1.25 µM, 24 h",viability,11.9%
Cc1cc(NS(=O)(=O)c2ccc(N=NN(O)c3ccccc3)cc2)no1,,"DPPH scavenging, absorbance",,300 µg/mL,inhibition,35%
CCCCn1cnc2ccc(-c3ccc(NC(=O)c4ccccc4)nc3)cc2c1=O,NCI-H1975,"cell growth or viability, CCK-8",,72 h,IC50,2.44 µM
Cc1cc(C)c(C#N)c(SC(C)C(=O)c2ccccc2)n1 (stereo not drawn),Leishmania infantum,parasite growth,mouse Macrophage,"intracellular, amastigote",EC50,> 64 µM
COc1cc(-c2nc3ccccc3c(=O)n2Nc2ccc([N+](=O)[O-])cc2[N+](=O)[O-])ccc1OCc1cn(CC(=O)Nc2ccc(Cl)cc2Cl)nn1,,"DPPH scavenging, absorbance",,100 µM,inhibition,16.2%
O=C(O)c1ccc(O)cc1,Helicobacter pylori,"microbial growth, broth dilution",,15.63 µg/mL,inhibition,100%
Cc1cccc(N(O)N=Nc2ccc(S(=O)(=O)Nc3onc(C)c3C)cc2)c1,,"DPPH scavenging, absorbance",,240 µg/mL,inhibition,30.2%
CCCCn1cnc2ccc(-c3ccc(NC(=O)Nc4ccc(Cl)cc4)nc3)cc2c1=O,HCC827,"cell growth or viability, CCK-8",,72 h,IC50,1.6 µM
COc1cc(-c2nc3ccccc3c(=O)n2Nc2ccc([N+](=O)[O-])cc2[N+](=O)[O-])ccc1OCc1cn(CC(=O)Nc2cccc(C)c2)nn1,,"DPPH scavenging, absorbance",,100 µM,inhibition,24.3%
CN(Cc1ccc(C2(C(F)(F)F)CC2)cc1)Cc1cccc2ccccc12,Trichophyton mentagrophytes,"microbial growth, disc diffusion",ATCC18748,"0.002 µg/mL, 72 h",inhibition zone,17 mm
O=C1O[C@H]([C@@H](O)CO)C(O)=C1O,,DPPH scavenging,,62.5 µg/mL,inhibition,56.1%
CCN(O)N=Nc1ccc(S(=O)(=O)Nc2onc(C)c2C)cc1,,"DPPH scavenging, absorbance",,300 µg/mL,inhibition,28.1%
Cc1cc(C(F)(F)F)c(C#N)c(SCC(=O)c2ccccc2)n1,Trypanosoma brucei,"parasite growth, resazurin",,,EC50,32.6 µM
CCCN(O)N=Nc1ccc(S(=O)(=O)Nc2nccs2)cc1,,"DPPH scavenging, absorbance",,20 µg/mL,inhibition,10.6%
Cc1ccccc1NC(=O)Nc1ccc(-c2ccc3ncn(Cc4ccccc4)c(=O)c3c2)cn1,NCI-H1975,"cell growth or viability, CCK-8",,72 h,IC50,1.95 µM
Cc1cc(C)c(C#N)c(SCC(=O)c2ccc(Cl)cc2)n1,Leishmania infantum,parasite growth,mouse Macrophage,"intracellular, amastigote",EC50,> 64 µM
COc1cc(-c2cc(=O)c3c(O)cc(O)cc3o2)ccc1O,Helicobacter pylori,"microbial growth, broth dilution",,3.9 µg/mL,inhibition,100%
CC(=NNC(N)=S)c1ccc(Nc2nnc(-c3ccc(Cl)cc3)c3ccccc23)cc1,HepG2,"cell growth or viability, MTT",,"1.25 µM, 24 h",viability,7.65%
CN(Cc1ccc(C(C)(C)C)cc1)Cc1cccc2ccccc12,Trichophyton mentagrophytes,"microbial growth, disc diffusion",ATCC18748,"0.032 µg/mL, 72 h",inhibition zone,55 mm
O=C(Nc1ccccc1)Nc1ccc(Oc2nnc(-c3ccc(Cl)cc3)c3ccccc23)cc1,HepG2,"cell growth or viability, MTT",,"1.25 µM, 24 h",viability,6.03%
CCCCNC(=O)Nc1ccc(-c2ccc3ncn(CCCC)c(=O)c3c2)cn1,NCI-H1975,"cell growth or viability, CCK-8",,72 h,IC50,6.86 µM
CC[C@H]1OC(=O)[C@H](C)[C@@H](O[C@H]2C[C@@](C)(OC)[C@@H](O)[C@H](C)O2)[C@H](C)[C@@H](O[C@@H]2O[C@H](C)C[C@H](N(C)C)[C@H]2O)[C@](C)(OC)C[C@@H](C)C(=O)[C@H](C)[C@@H](O)[C@]1(C)O,Helicobacter pylori,"microbial growth, broth dilution",,7.81 µg/mL,inhibition,100%
CC(=NNC(=O)c1ccccc1)c1ccc(Nc2nnc(-c3ccc(Cl)cc3)c3ccccc23)cc1,HepG2,"cell growth or viability, MTT",,10 µM,cell death,96.7%
Cc1cc(C)c(C#N)c(SCC(=O)c2ccccc2O)n1,Leishmania infantum,parasite growth,mouse Macrophage,"intracellular, amastigote",EC50,51 µM

# Some of these lines once more:
Structure (SMILES),tested on,test,test system,conditions,measurement,value
Cc1cccc(N(O)N=Nc2ccc(S(=O)(=O)Nc3onc(C)c3C)cc2)c1,,"DPPH scavenging, absorbance",,240 µg/mL,inhibition,30.2%
CCCCn1cnc2ccc(-c3ccc(NC(=O)Nc4ccc(Cl)cc4)nc3)cc2c1=O,HCC827,"cell growth or viability, CCK-8",,72 h,IC50,1.6 µM
COc1cc(-c2nc3ccccc3c(=O)n2Nc2ccc([N+](=O)[O-])cc2[N+](=O)[O-])ccc1OCc1cn(CC(=O)Nc2cccc(C)c2)nn1,,"DPPH scavenging, absorbance",,100 µM,inhibition,24.3%
CN(Cc1ccc(C2(C(F)(F)F)CC2)cc1)Cc1cccc2ccccc12,Trichophyton mentagrophytes,"microbial growth, disc diffusion",ATCC18748,"0.002 µg/mL, 72 h",inhibition zone,17 mm
